Assay results from different studies.
Every numbered part comes from another study and shows a few of its results, in no order. Substitutions count along the parent as printed.

Set 1
Target: Histone acetyltransferase KAT6A, winged helix 1, GST fusion (KAT6A, Homo sapiens, UniProt Q92794, residues 1-85)
Method: protein binding microarray
Form: double-stranded DNA, one strand shown
Medium: in vitro
Concentration: not given
Setting: 8-mer, flanks averaged, mean of 2 arrays, mostly near background
Baseline: not given
Reading: higher = stronger binding
Endpoint: E-score
Construct (chain): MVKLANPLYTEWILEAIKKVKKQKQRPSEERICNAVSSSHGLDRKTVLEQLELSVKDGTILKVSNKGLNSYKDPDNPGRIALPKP
CAACGGTC: -0.0174
GTCACAAC: -0.0208
AAATGTTC: -0.0483
ACTAACGA: -0.101
GCAGTGAA: -0.107
ACGGATCC: 0.305
CGGGCGCC: 0.409
CAAAGGCA: -0.117
TAGCCAAA: -0.124
GAAGCAGA: -0.328
TATGGGCA: -0.0862
GGCTCACC: 0.0516
CGAGCACC: -0.0432
CAGTGGAA: -0.0465
GCCGCACC: 0.318
TACCATAA: -0.0858
AGCAGACG: -0.0587
GTCTGTTA: -0.0905
GGCTCACA: -0.0925
AGACTAGC: -0.0561

Set 2
Target: RNA binding protein fox-1 homolog 2, RRM domain, GST-SBP tag (RBFOX2, Homo sapiens, UniProt O43251-10, residues 100-194)
Method: RNA Bind-n-Seq
Form: RNA
Medium: in vitro
Concentration: 365 nM
Setting: natural RNA segment, single round, ends assumed
Baseline: no-protein control
Reading: higher = stronger binding
Endpoint: RBNS enrichment (R)
Constant ends, left off below: GGGAGUUCUACAGUCCGACGAUC … UGGAAUUCUCGGGUGCCAA
ACAAGAUAUGAAGAAAAUGGCACUCAUUGUGGCCUUGUUGAAUUAUGUUGUGUAUGUUUUAACAUCUCUGAUGCUGUGUUACUAAAAUUACAAGGACCUGCUUUUUAAAA: 0.71
UUGCUUAAACAAAGUAACCUGUUUGGCUUAUAAACACAUUGAAUGCGCUCUAUUGCCCAUGGGAUAUGUGGUGUGUAUCCUUCAGAAAAAUUAAAAGGAAAAAUAAAGAA: 1.15
AAGAAGCAAUAGUAGCAAUCUUAAAUUUGACUCAUAGGGGAGAUAAGCGUGUGUCUUUUUAACUUAGUCCUAAGGUAAUCCAUUCAGAAGACAGCUUGCCUUUGUGUUCC: 0.88
UAAAUAUAUGGGAGACUGAUUAUAAAGAAUAAAGAAUAUUUGCAUUUACUUAUGCAACUACUAAUUUAAAUACUUUCCAGAAGUGGGAUACAUAAAGCUAUGGUUUAAUA: 0.689
AUAUUUGUUCUAGUUGGAAAGACGAAGCACUUUAUAAGCAUCAGACAAGUGUUUGGGACUAAUUGAGAAACAAGCCAGCUUAGAUGGAAGCUGUGCUGUGUGACUAUUAG: 0.487
AAAAGUUAAUUUAUGUGACUUGGCAGUUAUUCUAUACAUUUCCUGUCCAUUAAAAAUUUUAAAGGAACAGUUGUGUUUUAUUAUGCUCUAUGUAACCUUUUAGCCUUUAA: 0.56
UAGUCCCAAGCACAUAAACUAGGAAGAGAAUGUAUUUGUAGGAGCGCUACCACCUGUUUUCAAGAGAACAUAGAACUCCAACGUAACCGUCAUUUCAAAGAUUUACUGUA: 0.543
UGAGAAAUGGUGUAUGAUGCCUGGUGGUGGUAGGGGUGCGUAUUGAAACCCAGCGCGCAGUUCUCUUCUGUCAGCUUGUUUUUUUUAGAGUAAAAGGAAGAGAAAUAAAA: 1.93
AUGUUUUAGCUUCUAAAGACAAAAAUAUAGUGUUUUUAGCUUUUAGUUAAACUUUAUAAUUCUUUGCAAUUUUUAAGUAUUUUAAACUAAAUAUGCAAGGUUUGUUCUAU: 0.58
CUAUGCUUACUCCUUGAAGCUCCUCCUAAAGGCCUCUCCUCCAUGCUAUACCCCUCUCCAUUACAGAAACUGGUCCUGUGAGCUAAAAAGUGGGUGUGACUCGUGACUGG: 0.646
UGAAAUCCAAGCAAUACACAGGAAAUUUAAGUAGAAUAAAAAUUGCAGCCCAUUUUUGAAAUGUCAGCAUGUGCUGUGUUCAGUUCAGGUUUUUGUUGUUUGUUUUGUUA: 0.96
UCAAGGGCUGUAAAAUAUGAACUACUUAGGGUCGUUUGCCUUCCAUGGGAACUUGGCUAGACUUAGAAAAAGCUGUUUGUUGUGCUAAUGUAAAAGUGUCAUACAAUUUA: 2.44

Set 3
Target: TAR DNA-binding protein 43, full length, His tag (TARDBP, Homo sapiens, UniProt Q13148, residues 1-414)
Method: RNA Bind-n-Seq
Form: RNA
Medium: in vitro
Concentration: 20 nM
Setting: 6-mer, flanks averaged, single round
With: 150 mM KCl
Baseline: input library
Reading: higher = stronger binding
Endpoint: 6-mer enrichment (R)
AGAGUU: 0.722
CUACCG: 0.658
AGAAUA: 0.77
UAAUAC: 0.65
CGAAGG: 1.56
UCAACA: 0.586
AAUAUG: 0.733
CUCCCU: 0.653
UAGUUG: 0.774
UCGUGA: 0.746
UCGCUA: 0.588
GUCUCA: 0.623
GGUUCC: 0.802

Set 4
Target: Sal-like protein 4, full length isoform A (SALL4, Homo sapiens, UniProt Q9UJQ4, residues 1-1053)
Sequence of UniProt Q9UJQ4 (whole entry, looked up): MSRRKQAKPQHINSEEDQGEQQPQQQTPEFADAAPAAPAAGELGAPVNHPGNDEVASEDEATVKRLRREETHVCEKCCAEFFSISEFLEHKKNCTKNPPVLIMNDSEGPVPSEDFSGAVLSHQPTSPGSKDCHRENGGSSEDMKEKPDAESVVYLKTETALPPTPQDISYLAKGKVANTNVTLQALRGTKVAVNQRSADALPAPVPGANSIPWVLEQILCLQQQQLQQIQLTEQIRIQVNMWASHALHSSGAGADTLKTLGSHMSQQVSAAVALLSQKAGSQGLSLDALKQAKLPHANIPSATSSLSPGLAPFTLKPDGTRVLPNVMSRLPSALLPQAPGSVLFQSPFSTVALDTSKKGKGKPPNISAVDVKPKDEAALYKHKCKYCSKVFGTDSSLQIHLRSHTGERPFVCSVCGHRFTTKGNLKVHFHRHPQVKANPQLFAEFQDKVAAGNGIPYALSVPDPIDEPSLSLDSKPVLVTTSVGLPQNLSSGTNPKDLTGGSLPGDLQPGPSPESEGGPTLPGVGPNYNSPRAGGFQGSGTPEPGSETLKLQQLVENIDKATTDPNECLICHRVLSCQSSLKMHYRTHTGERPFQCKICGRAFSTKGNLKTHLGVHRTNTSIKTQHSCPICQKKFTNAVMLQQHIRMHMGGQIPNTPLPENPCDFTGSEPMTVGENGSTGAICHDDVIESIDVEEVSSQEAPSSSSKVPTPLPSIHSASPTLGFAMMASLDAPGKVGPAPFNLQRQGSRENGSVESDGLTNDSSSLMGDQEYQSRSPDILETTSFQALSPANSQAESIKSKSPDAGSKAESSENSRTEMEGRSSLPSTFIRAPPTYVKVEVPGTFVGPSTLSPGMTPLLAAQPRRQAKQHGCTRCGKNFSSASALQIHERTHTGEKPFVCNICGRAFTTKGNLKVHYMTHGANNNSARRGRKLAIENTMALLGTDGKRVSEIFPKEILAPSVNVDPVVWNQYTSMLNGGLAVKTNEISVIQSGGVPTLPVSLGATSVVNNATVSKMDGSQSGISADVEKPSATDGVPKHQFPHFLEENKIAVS
Method: universal PBM
Form: double-stranded DNA, one strand shown
Medium: in vitro
Concentration: 600 nM
Setting: 8-mer, flanks averaged, mean of replicates
Reading: higher = stronger binding
Endpoint: E-score
ATAGAACA: 0.191
CGTTTCTC: -0.225
CAGCGTCG: -0.243
CAATAGCC: 0.0285
CGAATGCG: -0.0583
AAACCGGA: -0.0644
GATAGGCA: 0.15
TCCACTAA: 2e-05
CCGGCCAG: -0.373
AGACCGCT: -0.193
CGGGCGGC: -0.392
GACGCGAA: -0.0345
AATCTGTC: 0.0906
CCGTACCC: -0.272
ATCCTGAC: -0.0177
CCGTCTGC: -0.372
CAATAACC: 0.266
GAGTGAAA: 0.274
ATCGAATA: 0.254
ACTGTCTG: -0.0355
CGCCTGAG: -0.336
ATAGCCCA: 0.035
GTGATCTA: 0.164
TATCCGGA: -0.0464
TACACCTA: 0.158

Set 5
Target: PABPC1L2, full length, GST fusion (mouse, UniProt A0ABA7IW68)
Method: RNAcompete
Form: RNA
Medium: in vitro
Concentration: 20 nM
Setting: 7-mer, probes averaged, single round
Baseline: mean of 7-mers
Reading: higher = stronger binding
Endpoint: 7-mer Z-score
Residues (chain): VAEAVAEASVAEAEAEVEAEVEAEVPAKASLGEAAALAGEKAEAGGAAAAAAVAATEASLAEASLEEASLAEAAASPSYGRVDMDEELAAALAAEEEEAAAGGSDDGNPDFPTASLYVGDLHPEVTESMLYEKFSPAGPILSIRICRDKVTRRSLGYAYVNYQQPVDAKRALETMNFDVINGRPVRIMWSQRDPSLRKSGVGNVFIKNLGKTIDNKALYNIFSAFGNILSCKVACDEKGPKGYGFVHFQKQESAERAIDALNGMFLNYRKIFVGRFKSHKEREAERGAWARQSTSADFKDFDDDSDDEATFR
AAUUUUA: 0.133
ACUAAGU: -0.124
ACGCUAG: -0.264
ACUUGAG: -0.0482
GCGUACU: -0.151
CCCCACA: -0.429
GUAGAGA: 0.0442
AUUUGAC: -0.258
AAGGCGU: 0.108
AUACGAU: -0.0283
GUCACGG: -0.021
UUUUCCU: -0.38
CUUAAAA: 2.58
UGUUGGU: -0.543
UGGAGCA: -0.0409
GCCCCAG: -0.231
AGGAUUC: -0.139

Set 6
Target: Ras GTPase-activating protein-binding protein 1, C-terminal RGG region (G3BP1, Homo sapiens, UniProt Q13283)
Sequence of UniProt Q13283 (whole entry, looked up): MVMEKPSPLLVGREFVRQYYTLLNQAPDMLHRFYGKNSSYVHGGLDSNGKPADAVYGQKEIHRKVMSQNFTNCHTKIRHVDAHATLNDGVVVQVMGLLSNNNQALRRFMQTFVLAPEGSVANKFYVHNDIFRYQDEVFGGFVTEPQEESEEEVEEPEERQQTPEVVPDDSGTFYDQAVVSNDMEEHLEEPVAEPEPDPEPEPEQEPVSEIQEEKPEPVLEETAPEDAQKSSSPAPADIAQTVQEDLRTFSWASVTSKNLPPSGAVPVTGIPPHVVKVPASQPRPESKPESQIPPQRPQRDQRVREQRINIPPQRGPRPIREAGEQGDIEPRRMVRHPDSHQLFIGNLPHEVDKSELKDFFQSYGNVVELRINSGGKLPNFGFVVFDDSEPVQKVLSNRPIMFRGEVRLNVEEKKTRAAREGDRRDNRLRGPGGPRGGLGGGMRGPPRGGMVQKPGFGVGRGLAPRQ
Method: RNA Bind-n-Seq
Form: RNA
Medium: in vitro
Concentration: 1 µM
Setting: whole 134-nt RNA, ends assumed
With: 150 mM KCl
Baseline: input library
Reading: higher = stronger binding
Endpoint: log2 enrichment
Constant ends, left off below: GGGAGUUCUACAGUCCGACGAUC … UGGAAUUCUCGGGUGUCAAGG
AGUCCUGUGCUACACAUCGUAUGUACCGAAUCGGGCCCCCGGCCCCCGGCCCCCGGGAAAGUAUUAUGUUACGCCGUUCGGAUCUGCACU: -1.96
UCCUCAAGUCCUGUGCUACACAUCGUAUGUACCGAAUCGGGUGGGUGGGUGGAAAGUAUUAUGUUACGCCGUUCGGAUCUGCACUUCCAG: 1.87
AAAAUUUCCAGUACCUUUGUCACAAUCCUAACACAUUAUCGGGAGCAGUGUCUUCCAUAAUGUAUAAAGAACAAGGUAGUUUUUACCUAC: -1.3
AGUCCUGUGCUACACAUCGUAUGUACCGAAUCGGUUUGGUUUUUUUGGAAAAAAAGGAAAGUAUUAUGUUACGCCGUUCGGAUCUGCACU: -2.06
ACCAUGCAGGUGGGCAUCUUUGGGAAGUGGGGCAAGGGGGGGAUAGGGAGGGGGGUAACACUUUGGGAACAGGUGGUCCCAGGUCGUUGC: 3.06
AAGUCCUGUGCUACACAUCGUAUGUACCGAAUCGGGGAAAGGGGAAAGGGGAAAGGGAAAGUAUUAUGUUACGCCGUUCGGAUCUGCACU: 0.961
CACAGACAACACGCACCCACACAGACACAGAGGGAAGGGGUUGGGAUGGGGACAGGGUGCACAGCAGGGCGGGGUAGGACCUCAGCCCCU: -1.04
AGUCCUGUGCUACACAUCGUAUGUACCGAAUCGGGGAGGGGUUUGGGGUUUUUGGGGAAAGUAUUAUGUUACGCCGUUCGGAUCUGCACU: 2.22
ACCAUGCAGGUGGGCAUCUUUAAAAAGUGGGGCAAGGGGGGGAUAGGGAGGGGGGUAACACUUUGGGAACAGGUGGUCCCAGGUCGUUUC: -0.979
AAGUCCUGUGCUACACAUCGUAUGUACCGAAUCGGUUUUUUUGGAAAAAGGAAAGGAAAGUAUUAUGUUACGCCGUUCGGAUCUGCACUU: -2.29
UCUAUGUAGCAUCCAGGUACUACUUCCUUUGGAAUGUCAGUAUUUAAUCUGAGCAAUGCGAUUGUGGGCAGUGGAAUCCUUGGGCUUUCU: -0.463
CACAGACAACACGCACCCACACAGACACAGAGGGAAGGGGUUGGGAUGGGGACAGGGUGCACAGCAAGGCGGGGUAGGACCCCAGCCCCU: -0.343
CAAGUCCUGUGCUACACAUCGUAUGUACCGAAUCGGGGCCCGGCCCGGGGCCCGGAAAGUAUUAUGUUACGCCGUUCGGAUCUGCACUUC: -1.73
ACCAUGCAGGUGGGCAUCUUGGGGAAGUGGGGCAAGGGGGGGAUAGGGAGGGGGGUAACACUUUGGGAACAGGUGGUCCCAGGUCGUUUC: -1.17

Set 7
Target: CCND2, cyclin fold, Cln2 fusion (human)
Method: yeast growth competition, sequencing
Medium: yeast
Setting: strong parent motif
Baseline: not given
Reading: higher = stronger binding
Endpoint: normalised enrichment score
Starting sequence: PKN2 docking peptide (human); VSAVRKLDFSDTM
VSAVRKLDFPDTM [S10P]: 1.95
VSAVRKLDFLDTM [S10L]: 2.58
VSAVHKLDFSDTM [R5H]: 0.29
VSAVRKLDFKDTM [S10K]: 2.46
VSAVRKLDQSDTM [F9Q]: -0.153
VSAVRKWDFSDTM [L7W]: 0.161
VSAVRRLDFSDTM [K6R]: 3.92
VSKVRKLDFSDTM [A3K]: 1.04
VSAVRKLDFEDTM [S10E]: 3.02
VSAVRKLDFSDQM [T12Q]: 3.37
VVAVRKLDFSDTM [S2V]: 1.33
VSAVRKLDFSDPM [T12P]: 4.01
VSAVRKLDFSDKM [T12K]: 3.69
VSAVRKLDFSCTM [D11C]: 3.17
VSAVRKLIFSDTM [D8I]: 1.47
VSAVRKTDFSDTM [L7T]: 0.123
VSAVRKQDFSDTM [L7Q]: -0.0318
VSAVRKLDNSDTM [F9N]: 0.177
VSAVRQLDFSDTM [K6Q]: 1.92
VSAVRKLDFSYTM [D11Y]: 2.5
